Results from different studies.
Each numbered part is a random draw from the data of one study; scales do not carry over between parts. Substitutions count along the parent as printed.

Study 1
Target: ABI1, truncated, D143A, DHFR fusion (Arabidopsis thaliana)
Technique: DHFR PCA, deep sequencing
Sample: yeast
Setting: methotrexate growth selection, single substitutions
With: (+)-ABA 0.39 µM
Baseline: wild-type fitted maximum
Direction: higher = stronger binding
Starting sequence: PYL1, truncated, DHFR fusion (Arabidopsis thaliana); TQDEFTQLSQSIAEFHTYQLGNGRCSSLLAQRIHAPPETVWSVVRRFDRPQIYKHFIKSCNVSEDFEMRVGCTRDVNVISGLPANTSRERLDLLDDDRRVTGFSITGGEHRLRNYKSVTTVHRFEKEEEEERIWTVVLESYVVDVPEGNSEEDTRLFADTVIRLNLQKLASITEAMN
| Variant | relative binding score |
| --- | --- |
| L93W | -1.91% |
| H55V | 92% |
| L164V | 36.8% |
| I57K | 25.1% |
| K126N | 64.9% |
| F124G | 5.16% |
| V136D | -7.82% |
| I79Q | 16.7% |
| H16L | 1.52% |
| R113N | 18.2% |
| E14M | 8.93% |
| S117V | -8.69% |
| S117T | -0.161% |
| Q7D | 37.3% |

Study 2
Target: Fragile X messenger ribonucleoprotein 1, C-terminal low-complexity region (Fmr1, Mus musculus, UniProt P35922)
Technique: RNA Bind-n-Seq
Form: RNA
Sample: in vitro
Concentration: 200 nM
Setting: whole 134-nt RNA, ends assumed
With: 150 mM LiCl
Baseline: input library
Direction: higher = stronger binding
All molecules: 7-deaza-guanosine replaces G
All sequences stand within: GGGAGUUCUACAGUCCGACGAUC … UGGAAUUCUCGGGUGUCAAGG
| Strand | log2 enrichment |
| --- | --- |
| CUCAGACAACACGCACCCACACAGACACAGAGGGAAGGGGUUGGGAUGGGGACAGGGUGCACAGCAGGGCGGGGUAGGACCCCAGCCCCU | -1.2 |
| AGUCCUGUGCUACACAUCGUAUGUACCGAAUCGGAAAAAGGGAAAAAGGGGAAAAAGGAAAGUAUUAUGUUACGCCGUUCGGAUCUGCAC | -0.846 |
| CAAGUCCUGUGCUACACAUCGUAUGUACCGAAUCGGAAAAAAAGGAAAAAGGUGGAAAGUAUUAUGUUACGCCGUUCGGAUCUGCACUUC | -1.18 |
| UGGUAAGAAAUCUGCUUGUUUUAUUAAAAUGCUUAAUUGAAGAAAAUAAUAUUCUUCUGUGAUUAAAAUUAGGAAGAAAUAGAACCAUUU | -2.43 |
| UAACUUUAGAGGAGGAUCUGAUGGAUAUGGCAGUGGACGUGGAUGUGGGGAUGGCUAUAAUGGGUAUGGAGGAGGACCUGGAGGUGGCAA | 0.907 |
| GCAGGAAGUAAAAACAAAUGGAAAUGCUUCGGAUGGUGGCAGGGGUGGGGGUUGCUAAGGAAAGGGUGGGAUGGGAGUGGGUAAAGAGUU | 1.24 |
| CCUGUGCUACACAUCGUAUGUACCGAAUCGGGGCCCCCCCGGCCCCCCCGGCCCCCCCGGAAAGUAUUAUGUUACGCCGUUCGGAUCUGC | 1.07 |
| AAGUCCUGUGCUACACAUCGUAUGUACCGAAUCGGAAAAAAAGGAGGAAAAAAAGGAAAGUAUUAUGUUACGCCGUUCGGAUCUGCACUU | -0.898 |
| UGGCCCUGGUGGCAUGCGGGGAGGGAGAGGUGGCCUCAUGGAUCGUGGUGGUCCCGGUGGAAUGUUCAGAGGUGGCCGUGGUGGAGACAG | 0.413 |
| GCAGGAAGUAAAAACAAAUGGAAAGGCUUCGGAUAGUGGCAGGGGUGGGGGUUGCUAAGGAAAGGGUGGGAUGGGAGUGGGUAAAGAGUU | 1.28 |
| UCAAGUCCUGUGCUACACAUCGUAUGUACCGAAUCGGAAAAAGGAAAAAGGAGGAAAGUAUUAUGUUACGCCGUUCGGAUCUGCACUUCC | -0.661 |

Study 3
Target: CCNA2, cyclin fold, Cln2 fusion (human)
Technique: yeast growth competition, sequencing
Sample: yeast
Setting: strong parent motif
Baseline: not given
Direction: higher = stronger binding
Starting sequence: CDC6 docking peptide (human); TLKGRRLVFDNQL
| Variant | normalised enrichment score |
| --- | --- |
| L13G | 3.35 |
| F9V | -0.462 |
| Q12I | 3.64 |
| L7S | 0.72 |
| T1K | 4.83 |
| L13M | 2.86 |
| T1P | 3.15 |
| R6N | -0.0393 |
| T1S | 2.49 |
| N11H | 2.53 |
| T1A | 3.19 |
| V8H | 1.81 |
| G4L | 1.85 |
| F9Y | 1.29 |

Further values, each from its own experiment
| Molecule | target | assay | system | setting | how to read | endpoint | value |
| --- | --- | --- | --- | --- | --- | --- | --- |
| PhoQ, residues 284 288 289 292 302 303 DDMDFR | PhoP, residues 12 14 15 18 19 YHFSH (Escherichia coli, UniProt P23836) | Sort-seq, item: YFP reporter | E. coli | PhoQ-PhoP variant library, with: 10 µM Mg2+ | baseline: high Mg2+ state, higher = stronger signaling | fold induction | 0.89 |

Some of these lines once more (study 3):
| Variant | normalised enrichment score |
| --- | --- |
| T1P | 3.15 |
| F9V | -0.462 |
| N11H | 2.53 |
| V8H | 1.81 |
| L13M | 2.86 |
